Assay results of several laboratories.
Compare with care: the assays were run in different laboratories. ± marks the error that the study gave.

With CC1OCC2OC(OC3C(N)CC(N)C(O)C3OC3OC(CO)C(OC4OC(CN)C(O)C(O)C4N)C3O)C(N)C(O)C2O1 (centres unmarked) the IC50 was 41.8 ± 7.39 µg/mL (Mycobacterium smegmatis ribosome G1491A; translation, cell-free luciferase synthesis).
With CC(=O)N[C@H]1CSC(=O)[C@H](Cc2ccccc2)NC(=O)[C@H](Cc2ccccc2)NC(=O)CCCCCCCCNC1=O the IC50 was 125 nM (AgrC (Staphylococcus aureus); reporter gene, inhibitor; Staphylococcus aureus, AH1747 (MW2); 24 h).
For CC[C@H](C)[C@H](NC(=O)[C@@H](NC(=O)[C@H](CCCCN)NC(=O)[C@@H](NC(=O)[C@@H]1CCCN1[C@@H]1CN(C(=O)[C@@H](NC(=O)[C@@H](NC(=O)[C@@H](NC(=O)[C@@H](NC(=O)[C@@H](NC(=O)[C@@H](N)CCCCN)C(C)C)C(C)C)C(C)C)[C@@H](C)CC)[C@@H](C)O)CC[C@H]1NS(=O)(=O)c1ccc(C)cc1)[C@@H](C)O)C(C)C)C(=O)N[C@@H](CC(C)C)C(=O)N[C@@H](Cc1c[nH]cn1)C(N)=O, the IC50 was 24000 nM (Tau-ΔK280 microtubule interaction; Tau effective diffusion; differentiated PC-12 expressing Tau-ΔK280; 24 h, DMSO 0.125%).
CCS(=O)(=O)[C@H]1[C@H](O)[C@@H](N)[C@@H](O[C@H]2[C@H](O[C@@H]3O[C@H](CO)[C@@H](O[C@H]4O[C@@H](CN)[C@@H](O)[C@H](O)[C@H]4N)[C@H]3O)[C@@H](O)[C@H](N)C[C@@H]2N)O[C@@H]1CO has an IC50 of 136 µg/mL (bacterial hybrid ribosome, human cytoplasmic A site; cell-free translation, inhibitor).
With COCOC[C@H]1O[C@H](O[C@H]2[C@H](O[C@@H]3O[C@H](CO)[C@@H](O[C@H]4O[C@@H](CN)[C@@H](O)[C@H](O)[C@H]4N)[C@H]3O)[C@@H](O)[C@H](N)C[C@@H]2N)[C@H](N)[C@@H](O)[C@@H]1O the IC50 was 586 ± 16.8 µg/mL (Mycobacterium smegmatis ribosome G1491C; translation, cell-free luciferase synthesis).
CCCCCCCCCCCCCCCC(=O)NCCCC[C@H](NC(=O)[C@H](CCCNC(=N)N)NC(=O)[C@H](Cc1ccc(O)cc1)NC(=O)[C@H](CC(C)C)NC(=O)[C@H](CCCNC(=N)N)NC(=O)CNS(=O)(=O)c1ccc(N)cc1)C(N)=O gave an IC50 of 19.5 ± 2.77 nM (70S ribosome (Escherichia coli); protein synthesis, cell-free translation; 4 h, 37 °C).
The IC50 of NC[C@@H]1O[C@H](O[C@H]2[C@@H](O)[C@H](O[C@@H]3[C@@H](O)[C@H](N)C[C@H](N)[C@H]3O[C@H]3O[C@H](CO)[C@@H](CCO)[C@H](O)[C@H]3N)O[C@@H]2CO)[C@H](N)[C@@H](O)[C@@H]1O is reported as 0.03 µg/mL (wild-type bacterial ribosome; cell-free translation, inhibitor).
CC(=O)N[C@H]1CSC(=O)[C@H](Cc2ccccc2)NC(=O)[C@H](Cc2ccccc2)NC(=O)CCCCCCCNC1=O gave an IC50 of 34.8 nM (AgrC (Staphylococcus aureus); reporter gene, inhibitor; Staphylococcus aureus, AH1747 (MW2); 24 h).
For CC(C)S[C@H]1[C@H](O)[C@@H](N)[C@@H](O[C@H]2[C@H](O[C@@H]3O[C@H](CO)[C@@H](O[C@H]4O[C@@H](CN)[C@@H](O)[C@H](O)[C@H]4N)[C@H]3O)[C@@H](O)[C@H](N)C[C@@H]2N)O[C@@H]1CO, the IC50 was 0.1 µg/mL (wild-type bacterial ribosome; cell-free translation, inhibitor).
CC(=O)N[C@H]1CNC(=O)[C@H](Cc2ccccc2)NC(=O)[C@H](Cc2ccccc2)NC(=O)CCCCCCCNC1=O has an IC50 of 573 nM (AgrC (Staphylococcus aureus); reporter gene, inhibitor; Staphylococcus aureus, AH1747 (MW2); 24 h).
CO[C@H]1[C@H](O)[C@@H](N)[C@@H](O[C@H]2[C@H](O[C@@H]3O[C@H](CO)[C@@H](O[C@H]4O[C@@H](CN)[C@@H](O)[C@H](O)[C@H]4N)[C@H]3O)[C@@H](O)[C@H](N)C[C@@H]2N)O[C@@H]1CO has an IC50 of 69 ± 11.5 µg/mL (Mycobacterium smegmatis ribosome G1491A; translation, cell-free luciferase synthesis).
For CC[C@H](C)[C@H](NC(=O)[C@H](CCCCN)NC(=O)[C@@H](NC(=O)[C@H](CCC(N)=O)NC(=O)[C@@H](N)CCCNC(=N)N)[C@@H](C)CC)C(=O)N[C@@H](Cc1c[nH]c2ccccc12)C(=O)N[C@@H](Cc1ccccc1)C(=O)N[C@@H](CCC(N)=O)C(=O)N[C@@H](CC(N)=O)C(=O)N[C@@H](CCCNC(=N)N)C(=O)N[C@@H](CCCNC(=N)N)C(=O)N[C@@H](CCSC)C(=O)N[C@@H](CCCCN)C(=O)N[C@@H](Cc1c[nH]c2ccccc12)C(=O)N[C@@H](CCCCN)C(=O)N[C@@H](CCCCN)C(=O)N[C@@H](CO)C(=O)N[C@@H](Cc1c[nH]c2ccccc12)C(=O)N[C@H](C(=O)N[C@@H](Cc1c[nH]c2ccccc12)C(=O)N[C@@H](CCC(=O)O)C(=O)N[C@@H](CCCCN)C(=O)N[C@@H](CCCCN)C(=O)N[C@@H](CC(C)C)C(=O)N[C@@H](CCC(=O)O)C(=O)N[C@H](C(=O)N[C@@H](C)C(=O)N[C@H](C(=O)N[C@@H](CC(N)=O)C(=O)N[C@@H](CC(C)C)C(=O)N[C@@H](C)C(=O)N[C@@H](Cc1c[nH]c2ccccc12)C(=O)N[C@H](C(=O)N[C@@H](C)C(=O)NCC(=O)N[C@@H](CC(N)=O)C(=O)N[C@@H](CO)C(=O)N[C@@H](CC(N)=O)C(=O)N[C@@H](CCCCN)C(=O)N[C@@H](Cc1c[nH]c2ccccc12)C(=O)N[C@H](C(=O)N[C@@H](Cc1c[nH]c2ccccc12)C(=O)N[C@@H](CCCCN)C(=O)O)[C@@H](C)O)[C@@H](C)O)C(C)C)[C@@H](C)O)[C@@H](C)O, the IC50 was 2500 nM (cell death; PI staining flow cytometry; MEC1; 90 min).
CC[S+]([O-])C1C(CO)OC(OC2C(N)CC(N)C(O)C2OC2OC(CO)C(OC3OC(CN)C(O)C(O)C3N)C2O)C(N)C1O (mixture of isomers) gave an IC50 of 118 µg/mL (bacterial hybrid ribosome, human mitochondrial A site; cell-free translation, inhibitor).
The IC50 of CCO[C@H]1[C@H](O)[C@@H](N)[C@@H](O[C@H]2[C@H](O[C@@H]3O[C@H](CO)[C@@H](O[C@H]4O[C@@H](CN)[C@@H](O)[C@H](O)[C@H]4N)[C@H]3O)[C@@H](O)[C@H](N)C[C@@H]2N)O[C@@H]1CO is reported as 40.8 ± 16.9 µg/mL (Mycobacterium smegmatis ribosome G1491A; translation, cell-free luciferase synthesis).
For C[C@@H](NC(=O)[C@@H](N)Cc1ccc(O)cc1)C(=O)NCC(=O)N[C@@H](Cc1ccc(F)cc1)C(=O)N1CCN(C(=O)[C@H](Cc2ccc(F)cc2)NC(=O)CNC(=O)[C@@H](C)NC(=O)[C@@H](N)Cc2ccc(O)cc2)CC1, the IC50 was 0.48 ± 0.07 nM (mu opioid receptor, guinea pig; ileum contraction, agonist; guinea pig ileum LMMP).
CC(=O)N[C@H]1CNC(=O)[C@H](Cc2ccccc2)NC(=O)[C@H](Cc2ccccc2)NC(=O)COCCOCCNC1=O gave an IC50 of over 10000 nM (AgrC (Staphylococcus aureus); reporter gene, inhibitor; Staphylococcus aureus, AH1677 (USA300 LAC); 24 h).
For NC[C@@H]1O[C@H](O[C@H]2[C@@H](O)[C@H](O[C@@H]3[C@@H](O)[C@H](N)C[C@H](N)[C@H]3O[C@H]3O[C@H](CO)[C@@H](SCCF)[C@H](O)[C@H]3N)O[C@@H]2CO)[C@H](N)[C@@H](O)[C@@H]1O, the IC50 was 102 µg/mL (bacterial hybrid ribosome, human mitochondrial A site; cell-free translation, inhibitor).
With COCO[C@H]1[C@H](O)[C@@H](N)[C@@H](O[C@H]2[C@H](O[C@@H]3O[C@H](CO)[C@@H](O[C@H]4O[C@@H](CN)[C@@H](O)[C@H](O)[C@H]4N)[C@H]3O)[C@@H](O)[C@H](N)C[C@@H]2N)O[C@@H]1CO the IC50 was 11.4 ± 0.55 µg/mL (Mycobacterium smegmatis ribosome G1491A; translation, cell-free luciferase synthesis).
With CCCS[C@H]1[C@H](O)[C@@H](N)[C@@H](O[C@H]2[C@H](O[C@@H]3O[C@H](CO)[C@@H](O[C@H]4O[C@@H](CN)[C@@H](O)[C@H](O)[C@H]4N)[C@H]3O)[C@@H](O)[C@H](N)C[C@@H]2N)O[C@@H]1CO the IC50 was 110 µg/mL (bacterial hybrid ribosome, human mitochondrial A1555G A site; cell-free translation, inhibitor).
The IC50 of CCCCCCCCC(=O)NCc1ccc(O)c(OC)c1 is reported as 0.143 µg/mL (mouse mAb 1-G12; antibody binding, indirect competitive ELISA; added: coating antigen 5-OVA).
The IC50 of CC(C)CS[C@H]1[C@H](O)[C@@H](N)[C@@H](O[C@H]2[C@H](O[C@@H]3O[C@H](CO)[C@@H](O[C@H]4O[C@@H](CN)[C@@H](O)[C@H](O)[C@H]4N)[C@H]3O)[C@@H](O)[C@H](N)C[C@@H]2N)O[C@@H]1CO is reported as 161 µg/mL (bacterial hybrid ribosome, human cytoplasmic A site; cell-free translation, inhibitor).
NC[C@@H]1O[C@H](O[C@H]2[C@@H](O)[C@H](O[C@@H]3[C@@H](O)[C@H](N)C[C@H](N)[C@H]3O[C@H]3O[C@@H]4COCO[C@H]4[C@H](O)[C@H]3N)O[C@@H]2CO)[C@H](N)[C@@H](O)[C@@H]1O has an IC50 of 120 ± 49.6 µg/mL (Mycobacterium smegmatis ribosome G1491A; translation, cell-free luciferase synthesis).
With CC[C@@H]1CN2CCc3c([nH]c4cccc(OC)c34)[C@@H]2C[C@@H]1/C(=C\OC)C(=O)OC the IC50 was 5.96 µg/mL (anti-compound rabbit polyclonal IgG; antibody binding, competitive indirect ELISA; no pre-incubation).
For CC[C@H](C)[C@H](NC(=O)[C@H](CCCCN)NC(=O)[C@@H](NC(=O)[C@H](CCC(N)=O)NC(=O)[C@H](CCCNC(=N)N)NC(=O)[C@H](CC(C)C)NC(=O)CNC(=O)[C@H](Cc1ccccc1)NC(=O)CNC(=O)[C@H](Cc1ccc(O)cc1)NC(=O)CNC(=O)[C@H](CCCCN)NC(=O)[C@@H](NC(=O)[C@H](Cc1ccccc1)NC(=O)[C@@H](NC(=O)[C@H](CC(=O)O)NC(=O)[C@H](CCCNC(=N)N)NC(=O)[C@H](C)NC(=O)[C@H](CO)NC(=O)[C@H](CCCCN)NC(=O)CNC(=O)[C@H](CC(C)C)NC(=O)[C@H](CC(=O)O)NC(=O)[C@H](C)NC(=O)[C@H](Cc1ccc(O)cc1)NC(=O)[C@@H](NC(=O)[C@@H]1CCCN1C(=O)[C@@H]1CCCN1C(=O)[C@@H](NC(=O)[C@H](C)NC(=O)[C@@H](N)CCSC)C(C)C)[C@@H](C)O)C(C)C)[C@@H](C)O)[C@@H](C)CC)C(=O)N[C@@H](Cc1c[nH]c2ccccc12)C(=O)N[C@@H](Cc1ccccc1)C(=O)N[C@@H](CCC(N)=O)C(=O)N[C@@H](CC(N)=O)C(=O)N[C@@H](CCCNC(=N)N)C(=O)N[C@@H](CCCNC(=N)N)C(=O)N[C@@H](CCSC)C(=O)N[C@@H](CCCCN)C(=O)N[C@@H](Cc1c[nH]c2ccccc12)C(=O)N[C@@H](CCCCN)C(=O)N[C@@H](CCCCN)C(=O)O, the IC50 was 4200 nM (cell death; PI staining flow cytometry; MEC1; 90 min).
The IC50 of CCCCCO[C@H]1[C@H](O)[C@@H](N)[C@@H](O[C@H]2[C@H](O[C@@H]3O[C@H](CO)[C@@H](O[C@H]4O[C@@H](CN)[C@@H](O)[C@H](O)[C@H]4N)[C@H]3O)[C@@H](O)[C@H](N)C[C@@H]2N)O[C@@H]1CO is reported as 62.1 ± 9.35 µg/mL (Mycobacterium smegmatis ribosome G1491A; translation, cell-free luciferase synthesis).
With CC(C)C[C@@H](/C=C/S(C)(=O)=O)NC(=O)[C@H](CC(C)C)NC(=O)[C@@H](NC(=O)N[C@H](C(=O)NCc1ccccc1)C(C)C)C(C)C the IC50 was 10000 nM (rabbit 26S proteasome beta2; trypsin-like activity; 30 min, 37 °C, added: Ac-RLR-AMC).

Repeated from above:
CC(=O)N[C@H]1CSC(=O)[C@H](Cc2ccccc2)NC(=O)[C@H](Cc2ccccc2)NC(=O)CCCCCCCNC1=O gave an IC50 of 34.8 nM (AgrC (Staphylococcus aureus); reporter gene, inhibitor; Staphylococcus aureus, AH1747 (MW2); 24 h).
The IC50 of NC[C@@H]1O[C@H](O[C@H]2[C@@H](O)[C@H](O[C@@H]3[C@@H](O)[C@H](N)C[C@H](N)[C@H]3O[C@H]3O[C@H](CO)[C@@H](CCO)[C@H](O)[C@H]3N)O[C@@H]2CO)[C@H](N)[C@@H](O)[C@@H]1O is reported as 0.03 µg/mL (wild-type bacterial ribosome; cell-free translation, inhibitor).
